Measurements of several laboratories.
Each line is one published result; not all experiments were run side by side. ± marks the error that the study gave.
AKR1C1: Aldo-keto reductase family 1 member C1 (AKR1C1, Homo sapiens, UniProt Q04828)
Chain of UniProt Q04828 (whole entry, looked up): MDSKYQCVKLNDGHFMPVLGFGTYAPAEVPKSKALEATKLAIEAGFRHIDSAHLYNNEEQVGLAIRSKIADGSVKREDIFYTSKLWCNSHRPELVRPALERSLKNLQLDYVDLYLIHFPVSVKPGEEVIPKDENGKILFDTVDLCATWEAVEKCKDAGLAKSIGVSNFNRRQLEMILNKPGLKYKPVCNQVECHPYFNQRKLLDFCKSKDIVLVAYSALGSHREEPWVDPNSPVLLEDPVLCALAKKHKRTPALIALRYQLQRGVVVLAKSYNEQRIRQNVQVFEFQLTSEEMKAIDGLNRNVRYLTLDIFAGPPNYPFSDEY
ache: Acetylcholinesterase (ache, Electrophorus electricus, UniProt O42275)
Chain of UniProt O42275 (whole entry, looked up): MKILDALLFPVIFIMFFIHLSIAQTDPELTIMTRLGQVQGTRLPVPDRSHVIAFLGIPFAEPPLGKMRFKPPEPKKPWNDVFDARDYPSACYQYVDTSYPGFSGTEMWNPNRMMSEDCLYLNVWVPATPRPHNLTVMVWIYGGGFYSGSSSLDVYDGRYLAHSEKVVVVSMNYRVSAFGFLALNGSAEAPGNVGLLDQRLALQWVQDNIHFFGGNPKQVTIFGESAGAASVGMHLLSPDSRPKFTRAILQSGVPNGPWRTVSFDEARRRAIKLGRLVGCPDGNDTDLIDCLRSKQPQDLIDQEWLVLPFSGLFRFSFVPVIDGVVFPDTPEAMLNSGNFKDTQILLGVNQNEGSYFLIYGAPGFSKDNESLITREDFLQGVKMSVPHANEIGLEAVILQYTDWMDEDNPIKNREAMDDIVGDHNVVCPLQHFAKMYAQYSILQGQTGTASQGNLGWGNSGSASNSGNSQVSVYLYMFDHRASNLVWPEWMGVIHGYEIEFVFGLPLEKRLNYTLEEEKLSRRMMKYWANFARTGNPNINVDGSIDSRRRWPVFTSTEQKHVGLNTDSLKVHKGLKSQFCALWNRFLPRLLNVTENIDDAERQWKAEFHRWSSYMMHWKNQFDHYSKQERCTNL
Chain of UniProt P14780 (whole entry, looked up): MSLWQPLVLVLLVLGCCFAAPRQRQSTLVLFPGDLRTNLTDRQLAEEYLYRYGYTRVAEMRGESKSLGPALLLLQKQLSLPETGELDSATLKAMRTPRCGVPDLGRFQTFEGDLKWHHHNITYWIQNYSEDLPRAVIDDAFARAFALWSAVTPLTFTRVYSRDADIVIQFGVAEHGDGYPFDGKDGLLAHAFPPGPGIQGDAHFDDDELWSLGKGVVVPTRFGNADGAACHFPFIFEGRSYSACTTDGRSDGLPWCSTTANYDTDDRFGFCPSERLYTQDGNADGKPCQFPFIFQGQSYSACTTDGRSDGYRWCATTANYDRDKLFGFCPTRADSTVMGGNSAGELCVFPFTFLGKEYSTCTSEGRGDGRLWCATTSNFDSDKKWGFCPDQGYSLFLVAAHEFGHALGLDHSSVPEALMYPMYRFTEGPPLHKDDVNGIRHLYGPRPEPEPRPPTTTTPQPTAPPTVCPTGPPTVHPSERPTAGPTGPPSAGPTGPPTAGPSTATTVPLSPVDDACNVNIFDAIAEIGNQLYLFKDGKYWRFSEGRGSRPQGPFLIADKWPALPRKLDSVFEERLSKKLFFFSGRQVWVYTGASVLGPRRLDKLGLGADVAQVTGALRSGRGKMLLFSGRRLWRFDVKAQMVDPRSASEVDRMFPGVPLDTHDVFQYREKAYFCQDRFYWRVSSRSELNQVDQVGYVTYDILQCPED
Chain of UniProt P21729 (whole entry, looked up): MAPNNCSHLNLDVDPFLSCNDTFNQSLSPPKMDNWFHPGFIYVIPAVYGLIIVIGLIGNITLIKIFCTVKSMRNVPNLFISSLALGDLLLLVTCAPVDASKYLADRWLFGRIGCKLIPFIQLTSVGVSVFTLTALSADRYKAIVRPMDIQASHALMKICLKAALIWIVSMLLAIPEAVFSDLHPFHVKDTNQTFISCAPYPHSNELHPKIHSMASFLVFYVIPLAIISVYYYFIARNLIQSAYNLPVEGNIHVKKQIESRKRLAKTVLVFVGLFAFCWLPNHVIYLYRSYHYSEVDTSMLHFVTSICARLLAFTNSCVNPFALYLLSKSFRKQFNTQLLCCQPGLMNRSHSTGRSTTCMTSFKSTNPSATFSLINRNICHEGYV
Chain of UniProt P52895 (whole entry, looked up): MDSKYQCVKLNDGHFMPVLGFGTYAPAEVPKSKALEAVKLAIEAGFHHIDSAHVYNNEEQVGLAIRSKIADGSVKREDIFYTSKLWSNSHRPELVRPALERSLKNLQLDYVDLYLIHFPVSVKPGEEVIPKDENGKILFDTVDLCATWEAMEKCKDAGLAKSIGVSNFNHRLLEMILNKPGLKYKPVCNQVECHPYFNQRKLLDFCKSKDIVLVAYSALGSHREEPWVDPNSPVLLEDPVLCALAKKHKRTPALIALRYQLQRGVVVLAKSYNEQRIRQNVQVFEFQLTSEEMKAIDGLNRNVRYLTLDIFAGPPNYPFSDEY
Chain of UniProt P40818 (whole entry, looked up): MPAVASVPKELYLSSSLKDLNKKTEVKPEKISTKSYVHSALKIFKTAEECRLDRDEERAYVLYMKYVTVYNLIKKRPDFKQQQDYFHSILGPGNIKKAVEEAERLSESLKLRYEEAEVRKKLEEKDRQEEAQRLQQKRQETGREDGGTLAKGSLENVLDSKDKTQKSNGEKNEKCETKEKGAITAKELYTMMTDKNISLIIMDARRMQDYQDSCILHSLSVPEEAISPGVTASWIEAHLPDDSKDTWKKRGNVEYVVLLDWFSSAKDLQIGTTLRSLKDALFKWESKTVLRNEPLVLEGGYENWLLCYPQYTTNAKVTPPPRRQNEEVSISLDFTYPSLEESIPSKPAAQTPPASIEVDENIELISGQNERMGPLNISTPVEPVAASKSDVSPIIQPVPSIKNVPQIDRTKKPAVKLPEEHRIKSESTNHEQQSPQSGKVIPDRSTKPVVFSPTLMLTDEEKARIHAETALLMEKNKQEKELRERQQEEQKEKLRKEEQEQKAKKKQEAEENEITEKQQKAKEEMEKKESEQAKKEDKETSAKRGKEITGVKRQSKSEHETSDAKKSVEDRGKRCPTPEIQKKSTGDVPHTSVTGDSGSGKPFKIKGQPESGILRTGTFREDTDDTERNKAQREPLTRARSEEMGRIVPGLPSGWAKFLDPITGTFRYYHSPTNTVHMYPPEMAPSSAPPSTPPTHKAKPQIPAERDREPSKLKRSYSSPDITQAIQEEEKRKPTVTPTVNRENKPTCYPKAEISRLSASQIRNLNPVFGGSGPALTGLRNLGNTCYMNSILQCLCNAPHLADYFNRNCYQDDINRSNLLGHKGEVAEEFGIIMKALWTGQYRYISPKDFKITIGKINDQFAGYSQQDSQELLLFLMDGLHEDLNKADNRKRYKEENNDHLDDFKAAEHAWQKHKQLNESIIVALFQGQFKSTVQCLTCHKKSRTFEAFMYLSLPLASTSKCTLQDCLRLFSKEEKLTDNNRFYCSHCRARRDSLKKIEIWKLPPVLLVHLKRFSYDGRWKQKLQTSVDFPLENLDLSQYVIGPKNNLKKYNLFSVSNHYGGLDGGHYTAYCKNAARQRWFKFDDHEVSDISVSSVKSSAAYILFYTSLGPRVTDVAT
Chain of UniProt Q13131 (whole entry, looked up): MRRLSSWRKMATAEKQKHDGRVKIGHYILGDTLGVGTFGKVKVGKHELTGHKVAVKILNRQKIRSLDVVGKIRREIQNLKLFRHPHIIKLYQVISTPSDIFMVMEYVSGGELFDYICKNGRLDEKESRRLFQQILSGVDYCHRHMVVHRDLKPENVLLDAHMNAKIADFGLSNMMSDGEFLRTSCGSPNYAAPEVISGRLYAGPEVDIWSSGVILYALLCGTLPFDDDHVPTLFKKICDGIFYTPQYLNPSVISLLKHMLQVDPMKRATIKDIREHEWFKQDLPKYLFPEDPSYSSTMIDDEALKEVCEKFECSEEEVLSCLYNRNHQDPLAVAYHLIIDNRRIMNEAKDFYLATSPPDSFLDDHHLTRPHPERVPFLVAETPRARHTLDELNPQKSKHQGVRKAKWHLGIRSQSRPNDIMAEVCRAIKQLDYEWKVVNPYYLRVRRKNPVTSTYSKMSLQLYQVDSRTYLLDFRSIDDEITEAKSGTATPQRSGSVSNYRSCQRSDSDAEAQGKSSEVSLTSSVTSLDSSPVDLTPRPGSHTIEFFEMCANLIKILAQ

Compound	tested on	test	system	setting	endpoint	result
C[C@]12CC[C@H]3[C@@H](CCC4=CC(=O)C=C[C@@]43F)[C@@H]1CCC2=O	AKR1C1	enzyme activity, inhibitor, absorbance		100 µM, pH 9	inhibition	25%
c1cc(Nc2c3c(nc4ccccc24)CCCC3)c2cccnc2c1	ache	enzyme activity, inhibitor, Ellman		100 µM	inhibition	46%
C[C@]12CC[C@@H]3c4cc(Cl)c(O)c(Cl)c4CC[C@H]3[C@@H]1CCC2=O	AKR1C1	enzyme activity, inhibitor, absorbance		100 µM, pH 9	inhibition	94.8%
C[C@@](O)(C(F)F)[C@H](NC(=O)c1ccc(C#CC#CC2CC2)cc1)C(=O)NO	Matrix metalloproteinase-9 (MMP9, Homo sapiens, UniProt P14780)	enzyme activity, inhibitor		30 µM	inhibition	≤ 30%
Nc1ccc(/C=C/C(=O)N2CCc3c(oc4c(-c5ccc(F)cc5)cc(-c5ccc(C(=O)N6CCC(F)(F)CC6)cn5)cc34)C2)cn1	MIA PaCa-2	western blot, item: Bim		concentration not given	protein level	increased
O=C(O)/C=C/c1ccc(O)cc1	alpha-amylase	enzyme activity, DNS		250 µg/mL	inhibition	64.5 ± 1.8%
C[C@@]12CC[C@@H]3c4ccc(O)c(Cl)c4CC[C@H]3[C@@H]1CCC2=O	Aldo-keto reductase family 1 member C2 (AKR1C2, Homo sapiens, UniProt P52895)	enzyme activity, inhibitor, absorbance		10 µM, pH 9	inhibition	73.9%
COc1ccc(Nc2c3c(nc4cc(C)ccc24)CCCC3)nc1	ache	enzyme activity, inhibitor, Ellman		100 µM	inhibition	62.1%
CN[C@](C)(C[18F])C(=O)O	SK-OV-3 tumour model		host not given, pancreas	2 h, tumour-bearing	tracer uptake	20 %ID/g
Cc1cccc(Nc2c3c(nc4ccccc24)CCC(C)C3)n1 (stereo not drawn)	ache	enzyme activity, inhibitor, Ellman		100 µM	inhibition	15.2%
CC(=O)NC(Cc1ccc(Br)c(Cl)c1)C(=O)N[C@@H](C)C(=O)N1CCC[C@H]1C(=O)N1CCC[C@H]1C(=O)N[C@@H](CCC(=O)O)C(=O)N[C@@H](Cc1c[nH]cn1)C(=O)N[C@@H](CO)C(=O)N[C@H](C(=O)N[C@@H](C)C(N)=O)[C@@H](C)OP(=O)(O)O (stereo partly drawn)	5'-AMP-activated protein kinase catalytic subunit alpha-1 (PRKAA1, Homo sapiens, UniProt Q13131)	enzyme activity, inhibitor		10 µM	inhibition	0.16%
Cc1ccc(N2CC3CCC(C2)N3C)cc1C(=O)N[C@H](C)c1cc(-c2cnn(C)c2)nc2ccccc12	Ubiquitin carboxyl-terminal hydrolase 8 (USP8, Homo sapiens, UniProt P40818)	enzyme activity		concentration not given	inhibition	no inhibition
CCCC[C@H](NC(=O)CNC(=O)CNC(=O)c1ccc(NN)nc1)C(=O)N[C@H]1CC(=O)NCCCC[C@@H](C(N)=O)NC(=O)[C@H](Cc2c[nH]c3ccccc23)NC(=O)[C@H](CCCNC(=N)N)NC(=O)[C@@H](Cc2ccccc2)NC(=O)[C@H](Cc2c[nH]cn2)NC1=O [technetium-99m labelled]			C57 mouse, B16/F1 melanoma, pancreas	2 h, together with: L-lysine 12 mg	uptake	0.13 ± 0.04 %ID/g
CCC(=O)N(C)c1ccc(Cl)c(Cl)c1	Escherichia coli	Ames test	WP2 uvrA	0.50 mg/plate, with rat liver S9	revertants	44 ± 5 revertants/plate
CCCNC(=O)[C@H](CC(C)C)NC(=O)[C@H](Cc1c[nH]cn1)NC(=O)CNC(=O)[C@@H](NC(=O)[C@H](C)NC(=O)[C@H](Cc1c[nH]c2ccccc12)NC(=O)[C@H](CCC(N)=O)NC(=O)[C@@H](Cc1ccccc1)NC(=O)CCCCCNC(=O)CN1CCN(CC(=O)O)CCN(CC(=O)O)CCN(CC(=O)O)CC1)C(C)C [indium-111 labelled]	Gastrin-releasing peptide receptor (Mus musculus, UniProt P21729)	biodistribution	CF-1 mice, lung	intravenous, 1 h, together with: bombesin 100 µg, blocking	tissue uptake	0.35 ± 0.05 %ID/g

Some of these lines once more:
Compound	tested on	test	system	setting	endpoint	result
Nc1ccc(/C=C/C(=O)N2CCc3c(oc4c(-c5ccc(F)cc5)cc(-c5ccc(C(=O)N6CCC(F)(F)CC6)cn5)cc34)C2)cn1	MIA PaCa-2	western blot, item: Bim		concentration not given	protein level	increased
